Published values from different studies.
Each line is one published result; not all experiments were run side by side.

| Molecule | tested on | test | system | conditions | how to read | endpoint | result |
| --- | --- | --- | --- | --- | --- | --- | --- |
| TLDSKTQSL |  | AIM | peptide, CD8+ T cells from PBMC, human donors | HLA-A*02:01 restricted, unit not given | baseline: positive over tested donors | frequency of responding donors | 17 |
| CC[C@H](C)[C@H](NC(=O)[C@H](CC(C)C)NC(=O)[C@H](Cc1c[nH]c2ccccc12)NC(=O)[C@H](CCC(N)=O)NC(=O)[C@@H](NC(=O)[C@H](Cc1ccccc1)NC(=O)[C@H](C)NC(=O)[C@H](CCCCNC(=O)COCCOCCNC(=O)COCCOCCNC(=O)CC[C@H](NC(=O)CCCCCCCCCCCCCCCCCCC(=O)O)C(=O)O)NC(=O)[C@H](CCC(N)=O)NC(=O)[C@H](C)NC(=O)[C@@H](NC(=O)[C@H](CCCCN)NC(=O)[C@H](CC(=O)O)NC(=O)[C@H](CC(C)C)NC(=O)C(C)(C)NC(=O)[C@@H](NC(=O)[C@H](CO)NC(=O)[C@H](Cc1ccc(O)cc1)NC(=O)[C@H](CC(=O)O)NC(=O)[C@H](CO)NC(=O)[C@@H](NC(=O)[C@H](Cc1ccccc1)NC(=O)[C@@H](NC(=O)CNC(=O)[C@H](CCC(=O)O)NC(=O)C(C)(C)NC(=O)[C@@H](N)Cc1ccc(O)cc1)[C@@H](C)O)[C@@H](C)O)[C@@H](C)CC)[C@@H](C)CC)C(C)C)C(=O)N[C@@H](C)C(=O)NCC(=O)NCC(=O)N1CCC[C@H]1C(=O)N[C@@H](CO)C(=O)N[C@@H](CO)C(=O)NCC(=O)N[C@@H](C)C(=O)N1CCC[C@H]1C(=O)N1CCC[C@H]1C(=O)N1CCC[C@H]1C(=O)N[C@@H](CO)C(N)=O |  |  | healthy subjects | 4.5 mg, multiple ascending dose |  | abdominal distension incidence | 66.7% |
| COc1ccc(-c2cc(=O)c3c(OC)cc(OC)c(OC)c3o2)cc1OC | Replicase polyprotein 1ab, main protease (rep, Severe acute respiratory syndrome coronavirus 2, UniProt P0DTD1) | reporter gene (mKate2), inhibitor |  | 20 µM |  | inhibition | -0.136% |
| Nc1ncnc2c([C@@H]3N[C@H](CO)[C@@H](O)[C@H]3O)c[nH]c12 | Zaire ebolavirus | antibody staining | HeLa, Kikwit | 1.6 µM |  | antigen-positive cells | 56.3% |
| TDTGVEHVTFFIYNK | human CD4 T cells | AIM | peptide |  |  | responding donors | 7% |

Repeated from above:
| Molecule | tested on | test | system | conditions | how to read | endpoint | result |
| --- | --- | --- | --- | --- | --- | --- | --- |
| CC[C@H](C)[C@H](NC(=O)[C@H](CC(C)C)NC(=O)[C@H](Cc1c[nH]c2ccccc12)NC(=O)[C@H](CCC(N)=O)NC(=O)[C@@H](NC(=O)[C@H](Cc1ccccc1)NC(=O)[C@H](C)NC(=O)[C@H](CCCCNC(=O)COCCOCCNC(=O)COCCOCCNC(=O)CC[C@H](NC(=O)CCCCCCCCCCCCCCCCCCC(=O)O)C(=O)O)NC(=O)[C@H](CCC(N)=O)NC(=O)[C@H](C)NC(=O)[C@@H](NC(=O)[C@H](CCCCN)NC(=O)[C@H](CC(=O)O)NC(=O)[C@H](CC(C)C)NC(=O)C(C)(C)NC(=O)[C@@H](NC(=O)[C@H](CO)NC(=O)[C@H](Cc1ccc(O)cc1)NC(=O)[C@H](CC(=O)O)NC(=O)[C@H](CO)NC(=O)[C@@H](NC(=O)[C@H](Cc1ccccc1)NC(=O)[C@@H](NC(=O)CNC(=O)[C@H](CCC(=O)O)NC(=O)C(C)(C)NC(=O)[C@@H](N)Cc1ccc(O)cc1)[C@@H](C)O)[C@@H](C)O)[C@@H](C)CC)[C@@H](C)CC)C(C)C)C(=O)N[C@@H](C)C(=O)NCC(=O)NCC(=O)N1CCC[C@H]1C(=O)N[C@@H](CO)C(=O)N[C@@H](CO)C(=O)NCC(=O)N[C@@H](C)C(=O)N1CCC[C@H]1C(=O)N1CCC[C@H]1C(=O)N1CCC[C@H]1C(=O)N[C@@H](CO)C(N)=O |  |  | healthy subjects | 4.5 mg, multiple ascending dose |  | abdominal distension incidence | 66.7% |
